Experimental data from different studies.
Every numbered part comes from another study and shows a few of its results, in no order. Values joined by “and” are separate records of one study, mostly repeats; a detail may differ.

Study 1
SMILES: C[C@@H]1CN(c2ccc(-c3cc(C(=O)NCCOCCOCCOCCOCCOCCOCCNC(=O)/C=C/c4[nH]cc(C(=O)N[C@@H](CC(N)=O)c5ccc(F)c(Cl)c5)c4-c4ccc(Cl)cc4F)ccc3F)cc2NC(=O)c2ccc(F)cc2C(F)(F)F)C[C@H](C)N1C
Read-out: thermal unfolding
Method: differential scanning fluorimetry
Tested at: 5.5 µM
Direction: higher = more unfolded
Measurement: SYPRO Orange fluorescence
DCAF1: DDB1- and CUL4-associated factor 1 (DCAF1, Homo sapiens, UniProt Q9Y4B6)
UniProt Q9Y4B6, sequence (whole entry, looked up): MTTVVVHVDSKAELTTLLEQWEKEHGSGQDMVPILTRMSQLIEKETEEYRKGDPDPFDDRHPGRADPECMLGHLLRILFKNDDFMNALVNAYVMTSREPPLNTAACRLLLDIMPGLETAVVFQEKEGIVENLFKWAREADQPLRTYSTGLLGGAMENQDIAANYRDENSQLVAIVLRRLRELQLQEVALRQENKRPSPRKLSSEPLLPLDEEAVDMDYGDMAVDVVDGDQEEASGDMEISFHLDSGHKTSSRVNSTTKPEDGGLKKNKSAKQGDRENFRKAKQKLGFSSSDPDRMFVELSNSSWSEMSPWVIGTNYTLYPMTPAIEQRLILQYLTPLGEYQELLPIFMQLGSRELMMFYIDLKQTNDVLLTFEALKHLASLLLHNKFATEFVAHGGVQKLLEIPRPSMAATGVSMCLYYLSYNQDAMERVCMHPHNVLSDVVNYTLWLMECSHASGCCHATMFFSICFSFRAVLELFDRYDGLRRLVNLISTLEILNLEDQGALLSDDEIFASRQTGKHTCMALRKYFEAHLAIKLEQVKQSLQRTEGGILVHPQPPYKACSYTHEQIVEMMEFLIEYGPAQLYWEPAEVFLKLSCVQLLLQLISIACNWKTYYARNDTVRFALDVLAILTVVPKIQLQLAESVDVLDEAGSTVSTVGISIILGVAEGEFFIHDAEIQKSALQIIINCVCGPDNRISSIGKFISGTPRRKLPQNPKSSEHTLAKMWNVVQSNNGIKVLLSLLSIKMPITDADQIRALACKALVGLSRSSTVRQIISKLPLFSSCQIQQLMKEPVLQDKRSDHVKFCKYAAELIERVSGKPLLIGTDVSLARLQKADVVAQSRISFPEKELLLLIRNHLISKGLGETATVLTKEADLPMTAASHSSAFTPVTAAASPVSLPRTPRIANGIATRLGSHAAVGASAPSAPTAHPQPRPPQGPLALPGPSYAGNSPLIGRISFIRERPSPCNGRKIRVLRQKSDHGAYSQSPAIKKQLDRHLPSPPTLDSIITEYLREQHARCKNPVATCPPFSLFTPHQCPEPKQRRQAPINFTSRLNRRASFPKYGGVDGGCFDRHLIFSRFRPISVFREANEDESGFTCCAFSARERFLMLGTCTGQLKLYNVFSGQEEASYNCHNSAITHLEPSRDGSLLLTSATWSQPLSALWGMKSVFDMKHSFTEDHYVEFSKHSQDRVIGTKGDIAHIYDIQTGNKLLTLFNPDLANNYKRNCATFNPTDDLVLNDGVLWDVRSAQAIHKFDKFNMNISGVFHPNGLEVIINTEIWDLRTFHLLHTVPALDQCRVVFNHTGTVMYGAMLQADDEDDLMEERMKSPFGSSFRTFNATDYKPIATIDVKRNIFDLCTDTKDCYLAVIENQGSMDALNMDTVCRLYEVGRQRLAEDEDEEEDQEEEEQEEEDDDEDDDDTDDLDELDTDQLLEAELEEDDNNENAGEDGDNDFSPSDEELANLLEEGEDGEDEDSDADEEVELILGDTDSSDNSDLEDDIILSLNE
WDR5: WD repeat-containing protein 5 (WDR5, Homo sapiens, UniProt P61964)
DCAF1; 59.61 °C: 45700 a.u.
WDR5; 89.21 °C: 56200 a.u.
DCAF1; 55.01 °C: 27000 a.u.
DCAF1; 49.2 °C: 17400 a.u.
DCAF1; 75.61 °C: 43200 a.u.
WDR5; 73.01 °C: 39900 a.u.
DCAF1; 48.2 °C: 16700 a.u.

Study 2
Cell line: HCC1569
Method: in-cell western
Measured: CDK1 phospho-Thr14
Tested at: 370.37 nM
Measurement: pCDK1 (Thr14) level
Cc1ncc(-c2cc3c(C(N)=O)c(-c4c(C)ccc(O)c4C)cnc3[nH]2)cn1: 8.65 RLU and 12.9 RLU
Cc1ncc(-c2cc3c(C(F)(F)F)c(-c4c(C)ccc(O)c4C)cnc3[nH]2)cn1: 26.9 RLU and 39.2 RLU
Cc1ccc(O)c(C)c1-c1cnc2[nH]c(-c3cnc(N4CCC(CN5CCN(c6ccc7c(c6F)CN(C6CCC(=O)NC6=O)C7=O)CC5)CC4)nc3)cc2c1C#N (stereo not drawn): 125 RLU and 117 RLU
Cc1ccc(O)c(C)c1-c1cnc2[nH]c(-c3cnc(N4CCC(CCN5CCN(c6ccc(NC7CCC(=O)NC7=O)cc6F)CC5)CC4)nc3)cc2c1C#N (stereo not drawn): 131 RLU and 126 RLU
Cc1ccc(O)c(C)c1-c1cnc2[nH]c(-c3cnc(N)nc3)cc2c1C#N: 62.7% and 62.1%
Cc1ncc(-c2cc3c(Cl)c(-c4c(C)ccc(O)c4C)cnc3[nH]2)cn1: 34.2 RLU and 25.4 RLU
Cc1ccc(O)c(C)c1-c1cnc2[nH]c(-c3cnc(N4CCC(CN5CCN(c6ccc7c(c6)CN(C6CCC(=O)NC6=O)C7=O)CC5)CC4)nc3)cc2c1C#N (stereo not drawn): 91.5 RLU and 96.2 RLU
Cc1ccc(O)c(C)c1-c1cnc2[nH]c(-c3cnc(N4CCC5(CC4)CC(CN4CCN(c6ccc(NC7CCC(=O)NC7=O)cc6F)CC4)C5)nc3)cc2c1C#N (stereo not drawn): 109 RLU and 117 RLU

Study 3
SMILES: CCN1/C(=C/C=C2\CCCC(/C=C/C3=[N+](CC)c4ccccc4C3(C)C)=C2NCCCCCCCCN2CCC(Nc3nc4ccccc4n3Cc3ccc(F)cc3)CC2)C(C)(C)c2ccccc21
Cell line: U-87 MG
Tested at: concentration not given
Relative to: DMSO
Measurement: log2 fold change
measured: ZNF408 mRNA: 0.806
measured: CCDC198 mRNA: -1.66
measured: EPHB2 mRNA: -1.25
measured: NUMB mRNA: 0.826
measured: CD276 mRNA: -1.03
measured: CPAMD8 mRNA: 4.54
measured: HOXB3 mRNA: -1.07
measured: CCDC103 mRNA: -0.973
measured: GATA3 mRNA: -0.938
measured: PAWR mRNA: 1.25
measured: SHROOM2 mRNA: -6.12

Single results of other studies
Cc1nc(C)c(C=[N+]([O-])C(C)(C)C)nc1C
Nrf2 protein level (Western blot; MPTP mouse model, substantia nigra nuclei; 10 mg/kg, unit not given; relative to: β-actin): 88 and 115 and 101
